Experimental data collected from several papers.
Parts stem from different laboratories: compare values within a part only.

Set 1
Target: Sal-like protein 4, full length isoform B (SALL4, Homo sapiens, UniProt Q9UJQ4-2, residues 1-616)
Technique: universal PBM
Molecule type: double-stranded DNA, one strand shown
Sample: in vitro
Concentration: not given
Setting: 8-mer, flanks averaged, mean of replicates
Reading: higher = stronger binding
Oligonucleotide	E-score
GAAAGATA	0.231
CGTCTTGC	-0.0861
GAGTGGAC	-0.161
CCTCACTC	-0.182
GCCAATAA	0.237
AACGCCCC	-0.281
CATGGACG	-0.147
GGAATTTA	0.159

Set 2
Target: Histone acetyltransferase KAT6A, both winged helices, GST fusion (KAT6A, Homo sapiens, UniProt Q92794, residues 1-181)
Technique: protein binding microarray
Molecule type: double-stranded DNA, one strand shown
Sample: in vitro
Concentration: not given
Setting: 8-mer, flanks averaged, mean of 2 arrays, mostly near background
Baseline: not given
Reading: higher = stronger binding
Construct (chain): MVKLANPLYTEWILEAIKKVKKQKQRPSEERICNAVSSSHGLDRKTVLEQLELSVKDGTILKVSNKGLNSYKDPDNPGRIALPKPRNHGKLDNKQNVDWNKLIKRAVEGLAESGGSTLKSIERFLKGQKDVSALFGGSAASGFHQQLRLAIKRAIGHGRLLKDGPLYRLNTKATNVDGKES
Oligonucleotide	E-score
ACTCACTC	-0.0348
ATAAATTA	0.0182
CGTACCCA	-0.0467
AGGGCGGA	0.134
AAATTCGT	-0.00675
GAAGTGAC	0.075

Set 3
Target: Interferon regulatory factor 3, full length, phosphomimetic (IRF3, Homo sapiens, UniProt Q14653, residues 1-427, S386D/S396D/S398D/S402D/T404D/S405D)
Technique: protein-binding microarray
Molecule type: double-stranded DNA, one strand shown
Sample: in vitro
Concentration: 2540 nM top
Setting: 60-bp whole probe
Together with: salmon DNA 0.4 mg/ml
Baseline: random background probes
Reading: higher = stronger binding
Constant ends, left off below: GCCTAGCAC … GTCTTGATTCGCTTGACGCTGCTG
Target sequence (chain): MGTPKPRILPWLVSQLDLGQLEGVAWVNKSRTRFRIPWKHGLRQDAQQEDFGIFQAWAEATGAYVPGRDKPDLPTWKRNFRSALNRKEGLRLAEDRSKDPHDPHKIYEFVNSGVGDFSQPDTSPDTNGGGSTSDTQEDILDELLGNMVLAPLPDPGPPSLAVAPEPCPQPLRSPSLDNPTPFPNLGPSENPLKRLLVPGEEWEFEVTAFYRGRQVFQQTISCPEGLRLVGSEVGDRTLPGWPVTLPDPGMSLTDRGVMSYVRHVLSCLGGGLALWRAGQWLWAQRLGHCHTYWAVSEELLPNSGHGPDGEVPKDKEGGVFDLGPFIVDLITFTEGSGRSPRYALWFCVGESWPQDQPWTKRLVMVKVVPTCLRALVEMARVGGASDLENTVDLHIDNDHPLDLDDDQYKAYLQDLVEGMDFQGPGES
Oligonucleotide	fitted relative affinity [z-score]
TCACCTCTCACCTCGGCACTGTGCTAG	0.557
CCACTTTCCATTTCTGTTTTTGTGCTA	8.46
TCAAAAATCATTTTCTCACTGTGCTAG	1.19
TTAGGACTGATTCTCCTTTAGTGCTAG	0.811
GATGGTTTCGACTTTCGGGACGTGCTA	3.66
TTAGGTTTCGACTTTGGGTTAGTGCTA	3.2

Mixed results
Substance	target	test	system	setting	scale	quantity	value
PhoQ, residues 284 288 289 292 302 303 TLSLKA	PhoP, residues 12 14 15 18 19 SQCLL (Escherichia coli, UniProt P23836)	Sort-seq, refers to: YFP reporter	E. coli	PhoQ-PhoP variant library, together with: 10 µM Mg2+	baseline: high Mg2+ state, higher = stronger signaling	fold induction	1.16
